Assay results pooled from the literature.
Protocols differ between the studies behind these lines. Numbers after ± are the reported error.

CCCC[C@H](NC(=O)CCCCCCCNC(=O)CN1CCN(CC(=O)O)CCN(CC(=O)O)CC1)C(=O)N[C@H]1CC(=O)NCCCC[C@@H](C(N)=O)NC(=O)[C@H](Cc2c[nH]c3ccccc23)NC(=O)[C@H](CCCNC(=N)N)NC(=O)[C@@H](Cc2ccccc2)NC(=O)[C@H](Cc2c[nH]cn2)NC1=O [copper-64 labelled]
tissue uptake (C57 mice, stomach; intravenous, 0.37 MBq, 4 h): 0.43 ± 0.09 %ID/g

CCn1cc(C(=O)NCCCCCC(=O)N[C@@H](CCCNC(=N)N)C(=O)N[C@@H](CCCNC(=N)N)C(=O)N[C@@H](Cc2c[nH]c3ccccc23)C(=O)N[C@@H](CCC(N)=O)C(=O)N[C@@H](Cc2c[nH]c3ccccc23)C(=O)N[C@@H](CCCNC(=N)N)C(N)=O)c(=O)c2cc3c(cc21)OCO3
retention time (RP-HPLC, C18 column; higher is more hydrophobic): 5.8 min

C=C1CC[C@H](OCCCNC(=O)CCOCCOCCOCCOCCOCCOCCOCCOCCOCCOCCOCCOCCOCCOCCOCCOCCOCCOCCOCCOCCOCCOCCOCCOCCOCCOCCOCCOCCOCCOCCOCCOCCOCCOCCOCCOCCNC(=O)CCN2C(=O)CC(SC[C@H](NC(=O)[C@H](Cc3ccccc3)NC(=O)[C@H](CC(N)=O)NC(=O)[C@H](Cc3c[nH]cn3)NC(=O)[C@@H](NC(=O)[C@H](CC(=O)O)NC(=O)[C@H](CCC(N)=O)NC(=O)[C@H](CC(C)C)NC(=O)[C@H](CCCCN)NC(=O)[C@H](CCCCN)NC(=O)[C@H](CCCNC(=N)N)NC(=O)[C@H](CC(C)C)NC(=O)[C@H](Cc3c[nH]c4ccccc34)NC(=O)[C@H](CCC(=O)O)NC(=O)[C@@H](NC(=O)[C@H](CCCNC(=N)N)NC(=O)[C@H](CCC(=O)O)NC(=O)[C@H](CCSC)NC(=O)[C@H](CO)NC(=O)[C@H](CC(N)=O)NC(=O)[C@H](CC(C)C)NC(=O)[C@H](Cc3c[nH]cn3)NC(=O)[C@H](CCCCN)NC(=O)CNC(=O)[C@H](CC(C)C)NC(=O)[C@H](CC(N)=O)NC(=O)[C@H](Cc3c[nH]cn3)NC(=O)[C@H](CCSC)NC(=O)[C@H](CC(C)C)NC(=O)[C@H](CCC(N)=O)NC(=O)[C@@H](NC(=O)[C@H](CCC(=O)O)NC(=O)[C@H](CO)NC(=O)[C@@H](NC(=O)[C@@H](N)CO)C(C)C)[C@@H](C)CC)C(C)C)C(C)C)C(N)=O)C2=O)C/C1=C/C=C1\CCC[C@]2(C)[C@@H]([C@H](C)CCCC(C)(C)O)CC[C@@H]12 (some centres unmarked)
dose-normalized AUC (Sprague Dawley rat; subcutaneous, 10 µg/kg daily, 89 days; reference: 1 µg/kg dose): 0.92

CC[C@H](C)[C@H](NC(=O)[C@H](Cc1c[nH]cn1)NC(=O)[C@@H]1CSSC[C@H](NC(=O)[C@H](Cc2c[nH]cn2)NC(=O)[C@H](Cc2ccccc2)NC(=O)CN2CCN(CC(=O)O)CCN(CC(=O)O)CCN(CC(=O)O)CC2)C(=O)N2C[C@H](O)C[C@H]2C(=O)N[C@@H](Cc2ccc(O)c(Cl)c2)C(=O)N[C@@H](CC(=O)O)C(=O)N[C@@H](CC(C)C)C(=O)N1)C(=O)N[C@@H](CC(C)C)C(=O)NCc1ccc(CNC(=O)CN2CCN(CC(=O)O)CCN(CC(=O)O)CCN(CC(=O)O)CC2)cc1 [indium-111 labelled]
thrombus uptake (Sprague-Dawley rat, male, carotid artery thrombosis, thrombus; 3 h): 1.04 %ID/g

COc1cc(/C=C/C(=O)NCCCCCC(=O)N[C@@H](CCCNC(=N)N)C(=O)N[C@@H](CC(C)C)C(=O)N[C@@H](CC(C)C)C(=O)N[C@@H](CCCNC(=N)N)C(=O)N[C@@H](CCCNC(=N)N)C(=O)N[C@@H](CC(C)C)C(=O)N[C@@H](CC(C)C)C(=O)N[C@@H](CCCNC(=N)N)C(N)=O)ccc1O
retention time (RP-HPLC, C18 column; higher is more hydrophobic): 6.7 min

CCCC[C@H](NC(=O)CNC(=O)CNC(=O)CN1CCN(CC(=O)O)CCN(CC(=O)O)CCN(CC(=O)O)CC1)C(=O)N[C@H]1CC(=O)NCCCC[C@@H](C(N)=O)NC(=O)[C@H](Cc2c[nH]c3ccccc23)NC(=O)[C@H](CCCNC(=N)N)NC(=O)[C@@H](Cc2ccccc2)NC(=O)[C@H](Cc2c[nH]cn2)NC1=O [lutetium-177 labelled]
tissue uptake (C57 mouse, female, lung; intravenous, 0.037 MBq, 2 h): 0.38 ± 0.05 %ID/g

CC(C)C[C@H](NC(=O)[C@@H](CCCCNC(=O)CCCCCNC(=O)CN1CCN(CC(=O)O)CCN(CC(=O)O)CCN(CC(=O)O)CC1)NC(=O)[C@H](Cc1ccc(O)cc1)NC(=O)[C@H](CO)NC(=O)[C@H](Cc1c[nH]c2ccccc12)NC(=O)[C@H](Cc1cnc[nH]1)NC(=O)[C@@H]1CCC(=O)N1)C(=O)N[C@@H](CCCNC(=N)N)C(=O)N1CCC[C@H]1C(=O)NCC(N)=O [indium-111 labelled]
tissue uptake (female athymic nude mouse, kidneys; intravenous, 0.037 MBq, 2 h): 8.88 ± 1.26 %ID/g

NCCCC[C@H](NC(=O)[C@H](CCCCN)NC(=O)[C@@H](N)CCCCN)C(=O)NCC(=O)NCC(=O)NCCCCCCCCNC(=O)COc1ccc(-c2ccccn2)cc1
cellular uptake of iridium (Jurkat; 25 µM, 1 h, 37 °C): 7.72 ± 0.68 fmol/cell

A few entries again:
CC[C@H](C)[C@H](NC(=O)[C@H](Cc1c[nH]cn1)NC(=O)[C@@H]1CSSC[C@H](NC(=O)[C@H](Cc2c[nH]cn2)NC(=O)[C@H](Cc2ccccc2)NC(=O)CN2CCN(CC(=O)O)CCN(CC(=O)O)CCN(CC(=O)O)CC2)C(=O)N2C[C@H](O)C[C@H]2C(=O)N[C@@H](Cc2ccc(O)c(Cl)c2)C(=O)N[C@@H](CC(=O)O)C(=O)N[C@@H](CC(C)C)C(=O)N1)C(=O)N[C@@H](CC(C)C)C(=O)NCc1ccc(CNC(=O)CN2CCN(CC(=O)O)CCN(CC(=O)O)CCN(CC(=O)O)CC2)cc1 [indium-111 labelled]
thrombus uptake (Sprague-Dawley rat, male, carotid artery thrombosis, thrombus; 3 h): 1.04 %ID/g
